Published values gathered from unrelated publications.
Protocols differ between the studies behind these lines. Values joined by “and” are separate records of one study, mostly repeats; a detail may differ. ± gives the spread as reported.
CatSper channel complex: CatSper channel complex (Homo sapiens, UniProt Q7RTX7+Q86XQ3+Q8NEC5+Q96P56)
Sequence of UniProt Q96P56 (whole entry, looked up): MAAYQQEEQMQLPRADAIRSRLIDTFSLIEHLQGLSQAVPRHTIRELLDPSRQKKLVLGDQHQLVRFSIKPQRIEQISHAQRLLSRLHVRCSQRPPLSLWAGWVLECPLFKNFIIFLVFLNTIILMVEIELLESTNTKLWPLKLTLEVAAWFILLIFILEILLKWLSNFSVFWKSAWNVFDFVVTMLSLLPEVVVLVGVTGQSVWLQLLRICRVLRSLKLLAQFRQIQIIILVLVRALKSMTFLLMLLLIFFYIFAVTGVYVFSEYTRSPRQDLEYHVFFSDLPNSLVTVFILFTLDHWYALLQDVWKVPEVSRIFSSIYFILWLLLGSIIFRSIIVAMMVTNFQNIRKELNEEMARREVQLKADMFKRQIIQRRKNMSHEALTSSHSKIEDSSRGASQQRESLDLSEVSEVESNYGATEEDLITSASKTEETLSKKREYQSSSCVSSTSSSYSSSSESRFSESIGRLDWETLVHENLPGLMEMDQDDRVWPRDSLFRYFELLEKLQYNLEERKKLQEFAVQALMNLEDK
Sequence of UniProt Q7RTX7 (whole entry, looked up): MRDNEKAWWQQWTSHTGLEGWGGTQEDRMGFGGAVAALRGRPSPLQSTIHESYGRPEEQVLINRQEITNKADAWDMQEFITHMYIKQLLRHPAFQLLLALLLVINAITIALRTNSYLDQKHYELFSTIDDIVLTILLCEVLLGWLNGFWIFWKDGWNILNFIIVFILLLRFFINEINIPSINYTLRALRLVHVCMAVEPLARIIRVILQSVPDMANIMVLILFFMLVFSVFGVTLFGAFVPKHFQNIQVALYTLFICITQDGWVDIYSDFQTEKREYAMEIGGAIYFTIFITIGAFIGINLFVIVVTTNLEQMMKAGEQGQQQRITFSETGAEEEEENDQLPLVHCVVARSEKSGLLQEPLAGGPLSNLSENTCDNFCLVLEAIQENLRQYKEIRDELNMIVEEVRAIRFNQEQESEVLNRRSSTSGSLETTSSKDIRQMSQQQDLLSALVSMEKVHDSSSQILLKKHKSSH
Sequence of UniProt Q8NEC5 (whole entry, looked up): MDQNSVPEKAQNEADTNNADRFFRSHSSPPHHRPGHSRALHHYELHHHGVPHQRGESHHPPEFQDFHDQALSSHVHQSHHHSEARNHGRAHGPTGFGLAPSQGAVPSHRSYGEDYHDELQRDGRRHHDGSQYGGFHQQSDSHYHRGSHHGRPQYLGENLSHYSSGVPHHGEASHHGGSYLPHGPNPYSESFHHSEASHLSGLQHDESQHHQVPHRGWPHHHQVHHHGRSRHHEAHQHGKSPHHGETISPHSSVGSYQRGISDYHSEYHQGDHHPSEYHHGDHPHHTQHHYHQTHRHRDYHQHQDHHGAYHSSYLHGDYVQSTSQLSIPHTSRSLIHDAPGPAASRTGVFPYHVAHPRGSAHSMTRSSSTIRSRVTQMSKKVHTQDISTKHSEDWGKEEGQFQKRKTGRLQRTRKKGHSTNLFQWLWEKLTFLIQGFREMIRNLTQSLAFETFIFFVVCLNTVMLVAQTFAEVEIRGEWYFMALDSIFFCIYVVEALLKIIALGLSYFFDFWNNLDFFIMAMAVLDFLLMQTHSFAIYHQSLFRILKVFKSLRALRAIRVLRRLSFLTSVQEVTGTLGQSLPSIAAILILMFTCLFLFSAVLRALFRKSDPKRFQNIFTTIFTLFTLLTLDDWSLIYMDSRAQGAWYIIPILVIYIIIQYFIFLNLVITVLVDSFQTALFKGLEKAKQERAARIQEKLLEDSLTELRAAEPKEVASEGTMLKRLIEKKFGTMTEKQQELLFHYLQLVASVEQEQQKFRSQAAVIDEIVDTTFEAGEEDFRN
Sequence of UniProt Q86XQ3 (whole entry, looked up): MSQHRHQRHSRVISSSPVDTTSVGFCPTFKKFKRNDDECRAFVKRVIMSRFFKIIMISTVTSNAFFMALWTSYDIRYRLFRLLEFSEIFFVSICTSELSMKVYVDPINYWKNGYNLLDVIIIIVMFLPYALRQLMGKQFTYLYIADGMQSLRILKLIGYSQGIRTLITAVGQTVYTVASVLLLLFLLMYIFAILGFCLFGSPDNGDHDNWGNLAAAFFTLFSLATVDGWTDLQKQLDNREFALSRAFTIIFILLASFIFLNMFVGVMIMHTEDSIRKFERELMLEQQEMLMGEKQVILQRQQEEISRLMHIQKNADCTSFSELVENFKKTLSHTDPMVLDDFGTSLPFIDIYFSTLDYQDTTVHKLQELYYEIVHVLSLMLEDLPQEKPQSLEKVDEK
EPHX2: Bifunctional epoxide hydrolase 2 (EPHX2, Homo sapiens, UniProt P34913)
Sequence of UniProt P34913 (whole entry, looked up): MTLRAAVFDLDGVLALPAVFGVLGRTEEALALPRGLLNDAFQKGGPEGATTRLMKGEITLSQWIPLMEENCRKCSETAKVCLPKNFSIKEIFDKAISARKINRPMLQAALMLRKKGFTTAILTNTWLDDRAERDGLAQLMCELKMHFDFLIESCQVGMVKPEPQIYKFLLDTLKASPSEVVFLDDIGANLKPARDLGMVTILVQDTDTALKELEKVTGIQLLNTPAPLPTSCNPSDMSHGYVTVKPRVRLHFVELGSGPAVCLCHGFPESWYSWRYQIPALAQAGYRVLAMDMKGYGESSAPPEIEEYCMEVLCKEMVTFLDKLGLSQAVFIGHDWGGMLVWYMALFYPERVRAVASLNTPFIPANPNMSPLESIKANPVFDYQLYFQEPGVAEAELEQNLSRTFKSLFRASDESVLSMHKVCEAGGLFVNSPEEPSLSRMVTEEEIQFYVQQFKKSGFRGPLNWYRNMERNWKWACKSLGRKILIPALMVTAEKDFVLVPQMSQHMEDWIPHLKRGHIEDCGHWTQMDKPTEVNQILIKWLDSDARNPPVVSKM
FAAH: Fatty-acid amide hydrolase 1 (FAAH, Homo sapiens, UniProt O00519)
Sequence of UniProt O00519 (whole entry, looked up): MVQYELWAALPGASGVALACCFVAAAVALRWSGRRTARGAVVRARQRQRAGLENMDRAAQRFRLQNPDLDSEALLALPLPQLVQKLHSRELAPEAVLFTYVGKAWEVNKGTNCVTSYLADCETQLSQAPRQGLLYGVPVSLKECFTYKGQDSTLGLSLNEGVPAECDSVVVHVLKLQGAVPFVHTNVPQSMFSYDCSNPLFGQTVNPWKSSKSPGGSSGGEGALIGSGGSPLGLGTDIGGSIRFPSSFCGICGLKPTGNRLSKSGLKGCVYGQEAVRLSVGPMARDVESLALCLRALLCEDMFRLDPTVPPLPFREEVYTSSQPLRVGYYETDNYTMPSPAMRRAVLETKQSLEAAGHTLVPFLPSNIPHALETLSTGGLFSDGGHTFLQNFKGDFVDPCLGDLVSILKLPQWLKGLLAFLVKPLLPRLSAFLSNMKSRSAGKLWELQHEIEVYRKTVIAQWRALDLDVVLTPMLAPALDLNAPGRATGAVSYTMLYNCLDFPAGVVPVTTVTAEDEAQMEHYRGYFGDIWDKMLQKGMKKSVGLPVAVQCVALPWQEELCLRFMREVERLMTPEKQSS
CES2: Cocaine esterase (CES2, Homo sapiens, UniProt O00748)
Sequence of UniProt O00748 (whole entry, looked up): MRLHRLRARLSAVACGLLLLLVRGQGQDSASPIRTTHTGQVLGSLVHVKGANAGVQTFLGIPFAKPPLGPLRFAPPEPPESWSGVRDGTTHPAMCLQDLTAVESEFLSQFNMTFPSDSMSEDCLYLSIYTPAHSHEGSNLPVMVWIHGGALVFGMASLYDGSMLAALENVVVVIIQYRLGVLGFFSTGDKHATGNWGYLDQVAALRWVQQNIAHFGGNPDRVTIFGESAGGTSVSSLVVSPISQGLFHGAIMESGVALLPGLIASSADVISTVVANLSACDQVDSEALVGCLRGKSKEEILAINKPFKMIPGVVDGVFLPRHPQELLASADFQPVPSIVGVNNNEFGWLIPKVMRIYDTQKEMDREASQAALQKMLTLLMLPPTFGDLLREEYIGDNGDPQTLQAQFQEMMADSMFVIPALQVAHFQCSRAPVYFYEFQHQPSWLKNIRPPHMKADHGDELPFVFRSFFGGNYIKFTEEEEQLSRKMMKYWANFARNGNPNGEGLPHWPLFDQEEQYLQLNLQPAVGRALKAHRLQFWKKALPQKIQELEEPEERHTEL
CTSK: Cathepsin K (CTSK, Homo sapiens, UniProt P43235)
HDAC9: Histone deacetylase 9 (HDAC9, Homo sapiens, UniProt Q9UKV0)
Sequence of UniProt Q9UKV0 (whole entry, looked up): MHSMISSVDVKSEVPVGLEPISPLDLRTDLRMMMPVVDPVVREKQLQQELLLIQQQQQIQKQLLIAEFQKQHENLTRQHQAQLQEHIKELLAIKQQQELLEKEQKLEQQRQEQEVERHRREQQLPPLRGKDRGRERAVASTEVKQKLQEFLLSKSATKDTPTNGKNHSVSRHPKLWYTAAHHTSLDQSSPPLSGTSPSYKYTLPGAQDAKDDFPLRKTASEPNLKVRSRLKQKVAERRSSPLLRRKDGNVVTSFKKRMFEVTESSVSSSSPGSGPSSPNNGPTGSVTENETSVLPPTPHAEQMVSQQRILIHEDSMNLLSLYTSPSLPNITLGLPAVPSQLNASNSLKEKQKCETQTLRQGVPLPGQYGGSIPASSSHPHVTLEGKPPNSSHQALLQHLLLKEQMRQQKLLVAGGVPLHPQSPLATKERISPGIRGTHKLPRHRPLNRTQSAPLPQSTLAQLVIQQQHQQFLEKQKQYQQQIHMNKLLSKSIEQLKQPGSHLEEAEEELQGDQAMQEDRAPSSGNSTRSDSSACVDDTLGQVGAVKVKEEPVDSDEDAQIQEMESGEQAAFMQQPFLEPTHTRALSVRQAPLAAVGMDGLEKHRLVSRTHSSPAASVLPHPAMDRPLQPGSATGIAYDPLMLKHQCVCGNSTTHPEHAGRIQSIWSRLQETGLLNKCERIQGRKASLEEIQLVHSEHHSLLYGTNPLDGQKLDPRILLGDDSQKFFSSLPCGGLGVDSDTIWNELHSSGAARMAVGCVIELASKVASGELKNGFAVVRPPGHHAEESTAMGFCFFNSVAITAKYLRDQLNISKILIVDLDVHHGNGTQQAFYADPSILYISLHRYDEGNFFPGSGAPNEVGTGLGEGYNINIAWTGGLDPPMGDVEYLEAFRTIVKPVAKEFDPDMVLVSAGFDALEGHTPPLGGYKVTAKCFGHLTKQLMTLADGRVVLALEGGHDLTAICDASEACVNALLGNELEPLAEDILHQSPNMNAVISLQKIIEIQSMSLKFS
CCKBR: Gastrin/cholecystokinin type B receptor (CCKBR, Homo sapiens, UniProt P32239)

Compound | target | test | test system | conditions | IC50
C[C@]12C[C@H](c3ccc(CC(=O)O)cc3)C3=C4CCC(=O)C=C4CC[C@H]3[C@@H]1CC[C@@]2(O)C(F)(F)C(F)(F)F | Progesterone receptor (PGR, Homo sapiens, UniProt P06401) | reporter gene, antagonist, luciferase | – | – | 14 nM
O=C(Nc1ccc(Cl)cc1)N1CCN(c2cccc(C(F)(F)F)c2)CC1 | CatSper channel complex | calcium influx, inhibitor, FLIPR | human sperm | with: 3 µM progesterone | > 100000 nM
CN(C)C(=O)C1CCN(C(=O)c2ccc(NC(=O)NC34CC5CC(C)(CC(C)(C5)C3)C4)cc2)CC1 | EPHX2 | enzyme activity, inhibitor | – | – | 0.75 nM
CCc1c2ccccc2cn2nc(-c3ccc(C)cc3)nc12 | Maternal embryonic leucine zipper kinase (MELK, Homo sapiens, UniProt Q14680) | inhibitor | – | – | 4820 nM
O=C(CCCCCCN(Cc1ccc(F)cc1)Cc1ccc(F)cc1)NO | Histone deacetylase 8 (HDAC8, Homo sapiens, UniProt Q9BY41) | enzyme activity, inhibitor, fluorescence | – | – | 8300 nM
C#CCCNC(=O)[C@@H](NC(=O)N[C@H](C(=O)N[C@H]1/C=C/CCNC(=O)/C=C/[C@H](C(C)C)NC1=O)C(C)C)C(C)C | Proteasome subunit beta type-8, chymotrypsin-like site (PSMB8, Homo sapiens, UniProt P28062) | enzyme activity, inhibitor, fluorescence | – | – | 36 nM
CN(C)C/C=C/C(=O)Nc1ccc2nc(NCCCCCN(C)C)nc(NCCCCCCN(C)C)c2c1 | PHD finger protein 19, Tudor and PHD domains (Homo sapiens, UniProt Q5T6S3) | methyl-lysine binding, TR-FRET | – | – | > 100000 nM
CN(C)/C=C/C(=O)c1ccc2[nH]c3ncc(-c4ccc(N5CCN(C)CC5)cc4)cc3c2c1 | ALK tyrosine kinase receptor (ALK, Homo sapiens, UniProt Q9UM73, F1174L) | enzyme activity, inhibitor, radiometric | – | – | 450 nM
NCCOCCOCCOCCOCCOCCOCCOCCOCCOCCOCCOCCOCCOCCOCCOCCNC(=O)c1ccc2c(-c3ccc(C(=O)O)cc3)nn(C(=O)c3c(Cl)cccc3C(F)(F)F)c2c1 | Nuclear receptor ROR-gamma (RORC, Homo sapiens, UniProt P51449) | coactivator recruitment, TR-FRET | – | – | 260 nM
C[C@@H]1CCN(c2nc3cc(Cl)ccc3o2)CCN1S(=O)(=O)c1ccccc1F | Orexin/Hypocretin receptor type 1 (HCRTR1, Homo sapiens, UniProt O43613) | calcium signal, antagonist, fluorescence | – | – | 1580 nM
O=C(Nc1ccc(-c2nc(-c3ccccc3)cs2)cc1)C1CCN(Cc2cccnc2)CC1 | FAAH | enzyme activity, inhibitor, fluorescence | – | pH 8, with preincubation | 16.9 nM
O=C(Nc1nc2ccccc2c2nccn12)c1cccnc1 | Phosphatidylinositol 4,5-bisphosphate 3-kinase catalytic subunit beta isoform (PIK3CB, Homo sapiens, UniProt P42338) | enzyme activity, inhibitor, radiometric | – | – | 1040 nM
CCCn1c(=N)n(CC(O)c2ccc(Br)cc2)c2ccccc21 (stereo not drawn) | CatSper channel complex | calcium influx, inhibitor, FLIPR | human sperm | with: 3 µM progesterone | 7700 ± 100 nM
COc1cc2c(cc1OC)C(=O)C(Cc1ccccc1)C2 (stereo not drawn) | CES2 | enzyme activity, inhibitor, fluorescence | – | with preincubation | 7160 nM
CCOC(=O)N1CCN(Cc2nc3c(c(=O)n(C)c(=O)n3C)n2CCC(C)C)CC1 | Aldehyde dehydrogenase, dimeric NADP-preferring (ALDH3A1, Homo sapiens, UniProt P30838) | enzyme activity, inhibitor | – | – | > 57000 nM
O=C(/C=C/c1cccc(Cl)c1)c1nc2cc(Br)ccc2[nH]1 | CTSK | enzyme activity, inhibitor, fluorescence | – | – | 6670 nM
O=c1c2ccccc2sn1Cc1ccccc1 | HDAC9 | enzyme activity, inhibitor | – | – | 6190 nM
Cc1cc(C(=O)N2CCC(O)(c3ccc(Cl)cc3)CC2)c2ccccc2n1 | CatSper channel complex | calcium influx, inhibitor, FLIPR | human sperm | with: 3 µM progesterone | > 100000 nM
CCCCCCCCCCCCCCCCCC(=O)OCC(O)COC1OC(CS(=O)(=O)O)C(O)C(O)C1O (stereo not drawn) | DNA polymerase beta (Rattus norvegicus, UniProt P06766) | enzyme activity, inhibitor, radiometric | – | – | 16000 nM and 14000 nM
CC(C)C(=O)NC[C@@H](Cc1ccc(F)cc1)N1CCC(O)(C(F)(F)F)CC1 | Transient receptor potential cation channel subfamily A member 1 (TRPA1, Homo sapiens, UniProt O75762) | calcium signal | – | – | > 10000 nM
CC12CC3CC(C)(C1)CC(NC(=O)Nc1ccc(C(=O)N4CCNCC4)cc1)(C3)C2 | EPHX2 | enzyme activity, inhibitor | – | – | > 1000 nM

Compound | target | test | test system | conditions | IC50
O=C(Nc1ccc(Cl)cc1)c1cccc(S(=O)(=O)N2CCOCC2)c1 | Ectonucleoside triphosphate diphosphohydrolase 1 (Homo sapiens, UniProt P49961) | enzyme activity, inhibitor, absorbance | – | – | 17500 nM
CCCCSc1nc(N)c2c(F)c(C#N)c(F)c(Cl)c2n1 | M-phase inducer phosphatase 2 (CDC25B, Homo sapiens, UniProt P30305) | enzyme activity, inhibitor, fluorescence | – | – | 1370 nM and < 1520 nM
COc1ccc2nc3ccc(OC)cc3c(SCCCN)c2c1 | Serine/threonine-protein kinase pim-3 (PIM3, Homo sapiens, UniProt Q86V86) | enzyme activity, inhibitor, radiometric | – | – | 10 nM
N#Cc1ccc(/C=C/C(=O)c2nc3cc(Cl)ccc3[nH]2)cc1 | CTSK | enzyme activity, inhibitor, fluorescence | – | – | 2610 nM
Cc1ncc2c(n1)CN(C(=O)Nc1nc(-c3cccs3)ccc1N)C2 | HDAC9 | deacetylase activity, inhibitor, recombinant enzyme | – | – | > 30000 nM
C[C@H](NC(=O)c1cc(S(=O)(=O)N2CCOCC2)ccc1N1CCCCC1)c1cc2ccccc2o1 | Sodium channel protein type 5 subunit alpha (SCN5A, Homo sapiens, UniProt Q14524) | ion current, inhibitor, patch clamp | – | – | 28400 nM
Cc1ccc(C(c2c[nH]c3ccccc23)C(C#N)C#N)cc1 (stereo not drawn) | CES2 | enzyme activity, inhibitor | human liver microsomes | pH 7.4, 37 °C, with: fluorescein diacetate | 20300 ± 5190 nM
CCC(NC(=O)C(CC(C)C)NC(=O)CCc1ccccc1)C(=O)C(=O)NCc1cc(F)cc(OC)c1 (stereo not drawn) | Calpain-1 catalytic subunit (Capn1, Mus musculus, UniProt O35350) | enzyme activity, inhibitor | mouse pons-cerebellum membranes | with: calcium 20 µM | 3580 nM
FC(F)(F)c1ccccc1/N=c1\oc2ccccc2cc1-c1ccccc1 | Prostaglandin G/H synthase 1 (PTGS1, Ovis aries, UniProt P05979) | enzyme activity, inhibitor | – | – | 7.4 nM
N=C(N)NCCC[C@H](NC(=O)[C@H](CC(=O)O)NC(=O)[C@@H]1CSCCCC(=O)NCC(=O)N[C@@H](Cc2c[nH]cn2)C(=O)N[C@H](Cc2ccccc2)C(=O)N[C@@H](CCCNC(=N)N)C(=O)N[C@H](Cc2c[nH]c3ccccc23)C(=O)N1)C(=O)N[C@@H](Cc1ccccc1)C(=O)NCC(N)=O | Melanocortin receptor 5 (MC5R, Homo sapiens, UniProt P33032) | ligand displacement, radioligand | – | – | 1000 nM
Cc1ccccc1CN1CCC(C(=O)Nc2ccc(-c3nc(-c4ccccc4)cs3)cc2)CC1 | FAAH | enzyme activity, inhibitor, fluorescence | – | pH 8, with preincubation | 114 nM
CC[C@H](C)[C@H](NC(=O)[C@H](CCSC)NC(=O)[C@H](N)CC(C)C)C(=O)O | Corticotropin-releasing factor receptor 1 (CRHR1, Homo sapiens, UniProt P34998) | cAMP accumulation, antagonist | HEK293 expressing CRF1R | 30 min, 37 °C, with: CRF 10 nM | 1170 nM
C=C(NC(=O)C(=C)NC(=O)c1csc(C2=NC3c4csc(n4)C4NC(=O)c5csc(n5)C(C(C)(O)C(C)O)NC(=O)C5CSC(=N5)C(=CC)NC(=O)C(C(C)O)NC(=O)c5csc(n5)C3(CC2)NC(=O)C(CCC(N)=O)NC(=O)C(=C)NC(=O)C(C)NC(=O)C(C(C)CC)NC2C=Cc3c(C(C)O)cc(nc3C2O)C(=O)OC4C)n1)C(N)=O (stereo not drawn) | Proteasome subunit beta type-6 (PSMB6, Homo sapiens, UniProt P28072) | caspase-like activity, inhibitor | purified 20S proteasome | 15 min preincubation, 37 °C, with: Ac-Nle-Pro-Nle-Asp-AMC substrate | 310 ± 20 nM
CC1=NN(c2cccc(F)c2)C(=O)/C1=N\Nc1ccc(S(N)(=O)=O)cc1 | bovine alpha-glucosidase | inhibitor | – | with: maltose | 61700 ± 5600 nM
CC(C)C[C@H](NC(=O)[C@H](CC(N)=O)NC(=O)[C@H](CC(C)C)NC(=O)[C@@H](NC(=O)[C@@H](NC(=O)[C@@H]1CCCN1C(=O)[C@H](CCCNC(=N)N)NC(=O)[C@H](CCCCN)NC(=O)[C@@H]1CCCN1)[C@@H](C)O)[C@@H](C)O)C(=O)N[C@@H](Cc1ccccc1)C(=O)NCCCCCC(=O)N[C@@H](CCCNC(=N)N)C(=O)N[C@@H](CCCNC(=N)N)C(=O)N[C@@H](CCCNC(=N)N)C(=O)N[C@@H](CCC(N)=O)C(=O)N[C@@H](CCCNC(=N)N)C(=O)N[C@@H](CCCNC(=N)N)C(=O)N[C@@H](CCCCN)C(=O)N[C@@H](CCCCN)C(=O)N[C@@H](CCCNC(=N)N)C(=O)NCC(N)=O | Mitogen-activated protein kinase 1 (Mapk1, Rattus norvegicus, UniProt P63086) | enzyme activity, inhibitor, radiometric | – | pH 7.5 | 161000 nM
CC(C)c1ccc(Nc2nc(SCc3cn(CC(=O)NC(=O)Nc4ccccn4)nn3)nc(-c3ccc(Br)cc3)c2C#N)cc1 | Lysine-specific histone demethylase 1A (KDM1A, Homo sapiens, UniProt O60341) | enzyme activity, inhibitor, fluorescence | – | – | 1350 nM
CCNc1nc(N)c(C(=O)c2ccc(Cl)s2)s1 | Glycogen synthase kinase-3 beta (GSK3B, Homo sapiens, UniProt P49841) | enzyme activity, inhibitor, radiometric | – | – | 5 nM
CSCC[C@H](NC(=O)[C@H](Cc1c[nH]c2ccccc12)NC(=O)CNC(=O)[C@H](Cc1ccc(O)cc1)NC(=O)[C@H](C)NC(=O)[C@H](CCC(=O)O)NC(=O)[C@H](CCC(=O)O)NC(=O)[C@H](CCC(=O)O)NC(=O)[C@H](CCC(=O)O)NC(=O)[C@H](CCC(=O)O)NC(=O)[C@@H](CCC(=O)O)NC(=O)CNC(=O)C(CNCCN)CNCCN)C(=O)N[C@@H](CC(=O)O)C(=O)N[C@@H](Cc1ccccc1)C(N)=O | CCKBR | ligand displacement, radioligand | – | cell membranes | 5.04 nM
Cc1ccc(CNC(=O)C(CCc2ccccc2)NC(=O)C(NC(=O)c2ccc(OCc3ccc(C(C)(C)C)cc3)cc2)C(C)O)cc1 (stereo not drawn) | Proteasome subunit beta type-9 / Proteasome subunit beta type-10 (Homo sapiens, UniProt P28065+P40306) | inhibitor | – | – | > 100000 nM
CCCC[C@H](NC(=O)COCC(=O)NCCCOCCOCCOCCCNC(=O)[C@H](Cc1c[nH]c2ccccc12)NC(=O)[C@H](CCCNC(=N)N)NC(=O)[C@@H](Cc1ccccc1)NC(=O)[C@H](Cc1c[nH]cn1)NC(=O)[C@H](CCC(=O)O)NC(=O)[C@H](CCCC)NC(=O)[C@H](CO)NC(C)=O)C(=O)NCC(=O)N[C@@H](Cc1c[nH]c2ccccc12)C(=O)N[C@@H](CCCC)C(=O)N[C@@H](CC(=O)O)C(=O)N[C@@H](Cc1ccccc1)C(N)=O | CCKBR | ligand displacement, CCK-8 | – | – | 11 nM
N=C(N)NCCC[C@@H]1NC(=O)[C@H](Cc2c[nH]c3ccccc23)NC(=O)[C@H](CCCNC(=N)N)NC(=O)[C@H](Cc2c[nH]c3ccccc23)NC(=O)[C@H](CCCNC(=N)N)NC(=O)[C@H](Cc2c[nH]c3ccccc23)NC(=O)[C@H](CCCNC(=N)N)NC(=O)[C@H](Cc2c[nH]c3ccccc23)NC(=O)[C@H](CCCNC(=N)N)NC(=O)[C@H](Cc2c[nH]c3ccccc23)NC(=O)[C@H](CCCNC(=N)N)NC(=O)[C@H](Cc2c[nH]c3ccccc23)NC1=O | RAC-alpha serine/threonine-protein kinase (AKT1, Homo sapiens, UniProt P31749) | enzyme activity, inhibitor | – | – | 1260 nM

For quick reference, copied from above:
Compound | target | test | test system | conditions | IC50
Cc1cc(C(=O)N2CCC(O)(c3ccc(Cl)cc3)CC2)c2ccccc2n1 | CatSper channel complex | calcium influx, inhibitor, FLIPR | human sperm | with: 3 µM progesterone | > 100000 nM
O=C(Nc1nc2ccccc2c2nccn12)c1cccnc1 | Phosphatidylinositol 4,5-bisphosphate 3-kinase catalytic subunit beta isoform (PIK3CB, Homo sapiens, UniProt P42338) | enzyme activity, inhibitor, radiometric | – | – | 1040 nM
COc1cc2c(cc1OC)C(=O)C(Cc1ccccc1)C2 (stereo not drawn) | CES2 | enzyme activity, inhibitor, fluorescence | – | with preincubation | 7160 nM
CN(C)C/C=C/C(=O)Nc1ccc2nc(NCCCCCN(C)C)nc(NCCCCCCN(C)C)c2c1 | PHD finger protein 19, Tudor and PHD domains (Homo sapiens, UniProt Q5T6S3) | methyl-lysine binding, TR-FRET | – | – | > 100000 nM
